Measurements collected from several papers.
Several values in a cell are separate wells, animals, samples, runs or records.
Target: Serine/threonine-protein kinase 38-like (STK38L, Homo sapiens, UniProt Q9Y2H1)

With `Cc1cccc(O[C@H]2CCC[C@@H](C(C)CNCc3ccncc3)C2)c1` (relative stereo) the inhibition was 2% (enzyme activity; 1 µM).
`NC(=O)C[C@H]1CCc2sc3ncnc(O[C@H]4CC[C@H](N5CCOCC5)CC4)c3c21` has an inhibition of 3% (enzyme activity, inhibitor; 10 µM).
`C=CC(=O)N1Cc2nc(-c3cc(-c4cc(Cl)cnc4Cl)c(F)cc3F)n(-c3ccncn3)c2C1` gave an inhibition of 9% (cell-free assay, inhibitor; 1 µM).
With `C=CC(=O)N1CCCC(n2c(=O)c3ncccc3n(Cc3ccc(Oc4ccccc4)cc3)c2=O)C1` (centres unmarked) the remaining binding was 92% (binding, competition with immobilised ligand; 1 µM).
`Cc1ccc(-c2c(/C=C(\C#N)C(=O)NC(C)C)n(CCCO)c3ncnc(N)c23)cc1` gave a remaining binding of 74% (binding, competition with immobilised ligand; 1 µM).
For `Cc1ccc(C(=O)Nc2ccc(CN3CCN(C)CC3)c(C(F)(F)F)c2)cc1C#Cc1cnc2cccnn12`, the upper asymptote was 7220 (target engagement, NanoBRET; human cells).
The remaining binding of `CC(C)=CC1OC(C)(C)C2C=C3C(=O)C(Cl)=CC(O)C3C3C(O)C4OC4C(=O)C132` (centres unmarked) is reported as 86% (cell-free assay, competition with immobilised ligand; 10 µM).
`N[C@H]1CC[C@H](Nc2nccc(-c3cccnc3Oc3ccc(NC(=O)NC4CC4)c4ccccc34)n2)CC1` — result for “log2 LFQ intensity”: 22.2 and 22 and 22.1 (kinobead competition pulldown; HEK293/HCT116 lysate mixture; 10 µM, 1 h, 4 °C; lower = stronger competition).
For `CCn1cc(C(=O)O)c(=O)c2c(N)c(F)c(NC3CCCCC3)cc21`, the inhibition was -17.4% (kinase activity; 0.1 µM, added: ATP at Km).
The remaining binding of `CCN1CCN(Cc2ccc(C(=O)Nc3ccc(C)c(NCc4cnc5[nH]ccc5c4OC)c3)cc2C(F)(F)F)CC1` is reported as 93% (binding, competition with immobilised ligand; 1 µM).
Under “activity vs control”, `CNC(=O)C[C@H](Cc1ccc(C#N)cc1)NC(=O)c1cc(-c2ccc(CN[C@H](C)c3ccc(C)cc3)o2)ccc1Cl` is recorded as 85% (enzyme activity, inhibitor; 1 µM).
`CNC1C[S+]2CC[S+]3CC[S+](C1)[Ru-4]321([N]=C=S)[n]2c3ccc(OC)cc3c3c4c(c5cc(F)c[n+]1c5c32)C(=O)NC4=O` (centres unmarked) gave a remaining binding of 100% (KinomeScan; 0.1 µM; reference: untreated).
The inhibition of `CN1CC[C@@H](COc2cnc(C#N)cc2-c2ccn3nc(NC(=O)C4CC4)cc3c2)C1` is reported as 10% (enzyme activity, inhibitor; 1 µM).
`O=C(Cc1ccc(OCc2ccccc2)cc1)NC1(C(=O)O)CCN(C(=O)c2ccc(-c3cccc(Cl)c3)cc2)CC1` — result for “activity vs control”: 97% (enzyme activity, inhibitor; 10 µM).

A few entries again:
The remaining binding of `CCN1CCN(Cc2ccc(C(=O)Nc3ccc(C)c(NCc4cnc5[nH]ccc5c4OC)c3)cc2C(F)(F)F)CC1` is reported as 93% (binding, competition with immobilised ligand; 1 µM).
`Cc1ccc(-c2c(/C=C(\C#N)C(=O)NC(C)C)n(CCCO)c3ncnc(N)c23)cc1` gave a remaining binding of 74% (binding, competition with immobilised ligand; 1 µM).
